Results from different studies.
Parts stem from different laboratories: compare values within a part only.

Block 1
Target: Interferon regulatory factor 5, full length, phosphomimetic (IRF5, Homo sapiens, UniProt Q13568-2, residues 1-514, S451D/S453D/S456D/S462D)
Technique: protein-binding microarray
Form: double-stranded DNA, one strand shown
Sample: in vitro
Concentration: 940 nM top
Notes: 60-bp whole probe
Added: salmon DNA 0.4 mg/ml
Baseline: random background probes
Direction: higher = stronger binding
Shared flanks, not repeated: GCCTAGCAC … GTCTTGATTCGCTTGACGCTGCTG
`AACACTCTTCTTTTGCTAATGTGCTAG` — result for “fitted relative affinity”: 1.57 z-score.
`TCAATTTTTTTTATTTAACTGTGCTAG`: “fitted relative affinity” 0.879 z-score.
For `TCAAGACTCATAATGGCTAGGTGCTAG`, “fitted relative affinity” read -0.251 z-score.
`TCAATGATCTCTCTGGGACTGTGCTAG`: “fitted relative affinity” -0.178 z-score.
Under “fitted relative affinity”, `GACGGTTTCGGGACTGGGGAGGTGCTA` is recorded as 7.44 z-score.
Under “fitted relative affinity”, `TCAGTTCTGCTTCTTAGACTGTGCTAG` is recorded as 0.635 z-score.
`TTAGGACTGCTACTGATTTAGTGCTAG` — result for “fitted relative affinity”: -0.391 z-score.
`TTACATATGTTTTTCATTTTGTGCTAG` — result for “fitted relative affinity”: 0.946 z-score.
For `TCACAAAAATGATTGGTACTGTGCTAG`, “fitted relative affinity” read -0.21 z-score.
Under “fitted relative affinity”, `TTAGGTTTCGGTTCCGGTGAGTGCTAG` is recorded as 15.1 z-score.
`GAGGATATCAGTATCGAGACGTGCTAG` — result for “fitted relative affinity”: 1.58 z-score.
For `GACGGTATCGGGACTAGGGACGTGCTA`, “fitted relative affinity” read 2.84 z-score.
Under “fitted relative affinity”, `GACGATTCCAGCTTCGAGACGTGCTAG` is recorded as -0.177 z-score.
Under “fitted relative affinity”, `GACTGTTTCGACACTGGGGACGTGCTA` is recorded as 2.83 z-score.
For `TTAGTTTTCAGTTCCGATTAGTGCTAG`, “fitted relative affinity” read 2.61 z-score.
`TTAGGACTGGACTTTCGATTAGTGCTA` — result for “fitted relative affinity”: 2.16 z-score.
`TTAGGTATCCTTTTCCTTGAGTGCTAG` — result for “fitted relative affinity”: 0.491 z-score.
For `GACGGACTGCTTATCATGACGTGCTAG`, “fitted relative affinity” read -0.202 z-score.
Under “fitted relative affinity”, `TTAGTTCTCCTTATCCTTTAGTGCTAG` is recorded as 1.49 z-score.

Block 2
Target: RING finger protein unkempt homolog, zinc fingers 1-6, GST-SBP tag (UNK, Homo sapiens, UniProt Q9C0B0, residues 30-357)
Technique: RNA Bind-n-Seq
Form: RNA
Sample: in vitro
Concentration: not given
Notes: RNA with constant flanks, human and mouse sites, ends assumed
Baseline: input RNA pool
Direction: higher = stronger binding
Residues (chain): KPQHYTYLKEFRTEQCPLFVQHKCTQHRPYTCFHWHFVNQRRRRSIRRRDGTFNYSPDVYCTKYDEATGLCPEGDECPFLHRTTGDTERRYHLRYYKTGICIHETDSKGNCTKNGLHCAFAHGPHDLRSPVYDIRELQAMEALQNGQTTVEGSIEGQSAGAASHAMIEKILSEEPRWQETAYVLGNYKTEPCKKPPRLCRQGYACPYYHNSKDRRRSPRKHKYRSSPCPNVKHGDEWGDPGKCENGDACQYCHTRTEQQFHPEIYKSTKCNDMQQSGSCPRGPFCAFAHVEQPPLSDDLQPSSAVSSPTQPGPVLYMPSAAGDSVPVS
`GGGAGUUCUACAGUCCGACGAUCCCAUUAAAACAGCAAAUAAAACCCAGUGAAGCAUUUUUUAAAGACUAACAGCUUAAUUAAUUUAGAUAUACUUUAAGAGAAAAACUAUUUUAUCCUUCAUGUGAAUAAUGAAUAACAGUACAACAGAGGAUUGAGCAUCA` has a bound/input enrichment of 8.62 ratio.
The bound/input enrichment of `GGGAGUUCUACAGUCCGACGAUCUCCGAGCUAAGGCGCAUGCGUUCCCUGAAAUUGCCGCCACCGGCUCUACCUUCCAGUUUCCAGUUCCGGCCUCCAAGGGGCGGGCAGAAGUUGGAAACAUGCGGCUGUCGGUCGCUGCAGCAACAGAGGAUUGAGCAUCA` is reported as 0.0513 ratio.
For `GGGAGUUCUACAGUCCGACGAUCCCCUUUGGCGGACCUUUUGAUGUGAGUAGAUGUUUUCUAGGAUAAAAUUUAAGGACUAAUUUUAGACUUAAAACAUUCCACUUUUGUAAGUUGUUUUCAGUGGUCUUAUGUAGAGCAAGCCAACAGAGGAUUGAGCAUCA`, the bound/input enrichment was 0.461 ratio.
`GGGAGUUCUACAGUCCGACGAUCCUUCAGUUACAUCCCAGGGAAGAUGCUUGCAUCCCCAAUACAAACUAUGGUGUUCUCUUAAUAGAAUUUUUUGAAUUAUAUGGACGACACUUCAAUUAUUUAAAGACUGGCAUCCGGAUACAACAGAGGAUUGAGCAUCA` has a bound/input enrichment of 1.34 ratio.
`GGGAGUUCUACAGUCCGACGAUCGAUGUUCCACCUGCUCAGAUCUAUCCUCUCCCUAAGCAACAGAACCUUCCUAAGAGACCUACUAGUUUGCCUUUGAACACCAAAAAUUCAACAAAAGAACCCCGGCUAAAAUUUGGCAACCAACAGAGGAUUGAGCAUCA` has a bound/input enrichment of 0.681 ratio.
The bound/input enrichment of `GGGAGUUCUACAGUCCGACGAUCAGUUUGGGAUUUGGCUCUUACAUCAGUGAAGUAAAAGAAGUCUUGCAAGAGUGUAAAACAGUAGCAUUAAAAAGAAGAAAGGCCAGUUCUCGUUUGGAAAACCUUGGCAUUCCUGAAGAACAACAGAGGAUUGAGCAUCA` is reported as 1.07 ratio.
`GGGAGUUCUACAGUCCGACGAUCAAGAACUUGGCCCUCAUGACACAUAUAACAACUGACAUGGAAGAUGGACCCAUUAUUAAGUUAGCUGGGAACUUGGGAGUAGAAGAUGUGAAUUUAUUAUGUGGAGAAGAGCUCUCUUACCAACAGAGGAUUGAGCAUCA` gave a bound/input enrichment of 0.335 ratio.
For `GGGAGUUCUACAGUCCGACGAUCGAGGAGGACCAGAGGACUGGGAAGCCUCUAGAAAAAGAAAAUCAGGAAUCUCUGAGGUCUCUUGAUGAAAACCAGGAGACAAUUGUACUGCUAGAAAGCAAGAACCAGAGGCCACUGAGACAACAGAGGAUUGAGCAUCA`, the bound/input enrichment was 0.371 ratio.

Block 3
Target: RNA binding protein fox-1 homolog 2, RRM domain, GST-SBP tag (RBFOX2, Homo sapiens, UniProt O43251-10, residues 100-194)
Technique: RNA Bind-n-Seq
Form: RNA
Sample: in vitro
Concentration: 365 nM
Notes: natural RNA segment, single round, ends assumed
Baseline: no-protein control
Direction: higher = stronger binding
Target sequence (chain): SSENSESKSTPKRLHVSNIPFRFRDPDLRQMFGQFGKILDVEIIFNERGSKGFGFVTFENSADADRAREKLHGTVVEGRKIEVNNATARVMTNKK
`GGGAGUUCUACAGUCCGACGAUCCCACCAGCAGAUUAUAAUUUUGUCAGCAAUGCUAUUAUCUCUAAUUAGUGCCACCAGACUAGACCUGUAUCAUUCAUGGUAUAAAUUUUACUCUUGCAACAUAACUACCAUGGAAUUCUCGGGUGCCAA`: “RBNS enrichment (R)” 0.596.
Under “RBNS enrichment (R)”, `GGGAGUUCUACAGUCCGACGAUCCCUGCGGCACGUUUGGGUUGGCACAGCUACCAUGAAAUGUUUUUAAUGGGAAUUCAUAAAGCAAGUUAGGAUUCACAAAUGUAGUGACCUAGUCCUUGGAGCUAAACUGGUGGAAUUCUCGGGUGCCAA` is recorded as 0.862.
Under “RBNS enrichment (R)”, `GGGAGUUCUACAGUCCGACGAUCAUGUUUAAAGAUGUAAUAUUUUGUACAAGACACACUGGAGAACAAAGGGAACUCAAAACUCUUCCACAUUCUUCCCGAGGAAAUCGACGACGUCCAUCCGUCCCACAGAGUGGAAUUCUCGGGUGCCAA` is recorded as 0.283.
`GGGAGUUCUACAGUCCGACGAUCCUGUUUUCAAGGGGAGUAAGAUUGGUAACAUUUGGGGAGACUGUAUCUGUCUACUUAGCGUGGCUGUUUUGAGGGACUGUCCCAUCAGUGAACAAACUGCAUGGCCUUGGUGGAAUUCUCGGGUGCCAA`: “RBNS enrichment (R)” 1.2.
`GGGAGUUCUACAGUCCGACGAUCCAUUGACCUUGGUCAAGCAUCUUAAAGAAGGCAACCCUAAUUGAGAGCUGUCUUGGCUAAUACUCUGCACCACAAUUGUGAUGUCCUAGUCCUACCACUAGAGGGCAUGGUGGAAUUCUCGGGUGCCAA`: “RBNS enrichment (R)” 0.245.
Under “RBNS enrichment (R)”, `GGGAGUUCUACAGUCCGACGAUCGCGUGUAUCUCACUGUUUUCCGUAUUGGGAACAGAUGGUAUAGAUUUGCCAAGGCCUUUAUUUUAAAGUGUUCUUGGAAAAUCGUAUUUAAAUUUGCAAUUAUUCUAAUUUGGAAUUCUCGGGUGCCAA` is recorded as 0.327.
Under “RBNS enrichment (R)”, `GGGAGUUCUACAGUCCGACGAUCCCUGGGAAUGUGUCCUCAUCACUUUAAUUGCAGAGUUACUGGGAAAUCAUUGUGCUACUCUGUGGAUGAGGGUUCAUUCUUAUGUAUGUUCAGAUGUCAUGUGCUGUCUAUGGAAUUCUCGGGUGCCAA` is recorded as 0.819.
`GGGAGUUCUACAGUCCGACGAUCGCUCUGGAAGUUUGGCUACCUCUAGGCAUGUGAGAAGGAAGGAAAGCCUAUUGCCUUUUCUCCUUUUACUUCAGCACCCAGCUACUGACUGGUUUCCAUAUCCCCACCCUUGGAAUUCUCGGGUGCCAA`: “RBNS enrichment (R)” 1.8.

Block 4
Target: Ras GTPase-activating protein-binding protein 1, RRM domain (G3BP1, Homo sapiens, UniProt Q13283)
Sequence of UniProt Q13283 (whole entry, looked up): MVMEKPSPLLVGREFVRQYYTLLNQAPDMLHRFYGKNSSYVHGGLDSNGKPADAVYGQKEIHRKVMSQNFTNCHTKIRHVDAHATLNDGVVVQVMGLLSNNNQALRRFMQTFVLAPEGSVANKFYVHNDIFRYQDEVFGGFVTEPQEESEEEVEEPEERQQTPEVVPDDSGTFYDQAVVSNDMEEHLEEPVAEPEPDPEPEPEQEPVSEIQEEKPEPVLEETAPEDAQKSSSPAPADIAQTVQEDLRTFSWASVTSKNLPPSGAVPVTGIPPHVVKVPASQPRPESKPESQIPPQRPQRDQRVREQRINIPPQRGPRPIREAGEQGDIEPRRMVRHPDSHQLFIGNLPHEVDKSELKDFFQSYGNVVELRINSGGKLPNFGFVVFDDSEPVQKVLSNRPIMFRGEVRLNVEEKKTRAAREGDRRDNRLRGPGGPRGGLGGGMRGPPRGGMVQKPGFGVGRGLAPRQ
Technique: RNA Bind-n-Seq
Form: RNA
Sample: in vitro
Concentration: 1 µM
Notes: whole 134-nt RNA, ends assumed
Added: 150 mM KCl
Baseline: input library
Direction: higher = stronger binding
With `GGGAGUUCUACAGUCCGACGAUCUAACUUUAGAGGAGGAUCUGAUGGAUAUGGCAGUGGACGUGGAUUUCGGGAUGGCUAUAAUGGGUAUGGAGGAGGACCUGGAGGUGGCAAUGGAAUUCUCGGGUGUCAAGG` the log2 enrichment was -0.447.
The log2 enrichment of `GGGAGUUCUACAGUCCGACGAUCUCCUGUGCUACACAUCGUAUGUACCGAAUCGGGAAAGGGAAAAAAAGGGAAAAAAAGGGAAAGUAUUAUGUUACGCCGUUCGGAUCUGCAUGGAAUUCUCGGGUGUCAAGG` is reported as 0.116.
With `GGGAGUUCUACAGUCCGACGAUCAGUCCUGUGCUACACAUCGUAUGUACCGAAUCGGGUUUUGGGUUUUGGGUUUUGGGGAAAGUAUUAUGUUACGCCGUUCGGAUCUGCACUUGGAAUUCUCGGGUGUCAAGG` the log2 enrichment was 0.796.
`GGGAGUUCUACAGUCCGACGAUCAGUCCUGUGCUACACAUCGUAUGUACCGAAUCGGGGUUUUGGGGUUUUGGUUUUGGGAAAGUAUUAUGUUACGCCGUUCGGAUCUGCACUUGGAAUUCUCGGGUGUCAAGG` has a log2 enrichment of -0.302.
The log2 enrichment of `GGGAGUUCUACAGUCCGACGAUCUUAAGUGUAUUGGAGCCCCAAGUUCUCAAUUAUUUGAGCCUCCGGGCGACAGAGCAAGAAAAGGUGAGUGGAUAGCGCAGGCAUAUUGGUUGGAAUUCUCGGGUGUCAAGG` is reported as -0.162.
With `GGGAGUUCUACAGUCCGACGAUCUGCUCUCCGUGCCACAUGCGCCCGCAGGUUACGCCAAGGAGGCCCUGAAUCUGGCGCAGAUGCAGGAGCAGACGCUGCAGUUGGAGCAACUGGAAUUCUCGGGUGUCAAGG` the log2 enrichment was -0.515.
With `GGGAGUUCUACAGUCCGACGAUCUCCUGUGCUACACAUCGUAUGUACCGAAUCGGGAAAAAAAGGGAAAGGGUUUUUUUGGGAAAGUAUUAUGUUACGCCGUUCGGAUCUGCAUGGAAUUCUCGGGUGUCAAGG` the log2 enrichment was 0.00593.
With `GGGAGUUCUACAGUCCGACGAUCCACAGACAACACGCACCCACACAGACACAGAGGGAAGGGGUUGGGAUGGGGGCAGGGUGCACAGCAGGGCGGGGUAGGACCCCAGCCCCUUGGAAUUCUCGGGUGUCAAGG` the log2 enrichment was 0.353.
With `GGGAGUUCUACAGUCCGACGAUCCCUGUGCUACACAUCGUAUGUACCGAAUCGGGGUUUUUUGGGUUUUUUGGGGUUUUUUGGAAAGUAUUAUGUUACGCCGUUCGGAUCUGCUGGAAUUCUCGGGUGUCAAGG` the log2 enrichment was -0.267.
